Measured values pooled from the literature.
Lines come from different studies, so protocols differ. Numbers after ± are the reported error.

Molecule	cell line	assay	setting	IC50
O=C(COc1ccc(-c2nc3ccc(F)cc3[nH]2)cc1)N1CCOCC1	DND41	cell growth or viability, MTS	72 h	30.3 µM
O=C(N/N=C/c1cnc(N2CCCC2)nc1)Nc1cc2c(Nc3ccc(F)c(Cl)c3)ncnc2cc1O[C@H]1CCOC1	NCI-H1975	cell growth or viability, MTT	72 h	1.72 µM
COc1ccc(C[C@H]2COC(=O)[C@@H]2Cc2ccc(OCCCCCC(=O)NO)c(OC)c2)cc1OC	Kasumi 1	cell growth or viability, CCK-8	48 h	> 5 µM
COc1cc(/C=C/C(=O)CC(=O)/C=C/c2ccc(O)c(OC)c2)ccc1O	BGC-823	cell growth or viability, MTT	72 h	17.5 µM
O=S(=O)(c1cccc2cnccc12)N1CCCNCC1	N-SMC	cell growth, CCK-8	24 h, hypoxia 0.1% O2	1.6 µM
Clc1ccc2nc(-c3ccc(OCCN4CCOCC4)cc3)[nH]c2c1	DND41	cell growth or viability, MTS	72 h	39.3 µM
COc1cccc(/C=C/C(=O)/C=C/c2cccc(OC)c2OC)c1OC	BGC-823	cell growth or viability, MTT	72 h	3.9 µM
CCN(CC)CCCOc1ccc(/C=N/NC(=O)Nc2cc3c(Nc4ccc(F)c(Cl)c4)ncnc3cc2O[C@H]2CCOC2)cc1	NCI-H1975	cell growth or viability, MTT	72 h	1.53 µM
COc1ccc(C[C@H]2COC(=O)[C@@H]2Cc2ccc(OCCCCC(=O)NO)c(OC)c2)cc1OC	Kasumi 1	cell growth or viability, CCK-8	48 h	> 5 µM
O=C(/C=C/c1ccc(Cl)cc1)C(=CC1=CC=C[CH]1[Fe][CH]1C=CC=C1)C(=O)/C=C/c1ccc(Cl)cc1 (stereo not shown)	RKO	cell growth or viability, MTT	–	10.5 µM
CCCNC(=O)Nc1ccc(S(=O)(=O)Oc2cccnc2C(C)C)cc1	HT-1080	cell growth or viability, SRB	48 h	2.3 µM
COc1ccc(C[C@H]2COC(=O)[C@@H]2Cc2ccc(OCC(=O)Nc3ccc(C(=O)Nc4ccccc4N)cc3)c(OC)c2)cc1OC	Kasumi 1	cell growth or viability, CCK-8	48 h	0.86 µM
CCCCCCNC(=O)n1cc(F)c(=O)[nH]c1=O	MDA-MB-435S	cell growth or viability, MTT	72 h	213 µM
O=C(Cc1ccc(C(F)(F)F)cc1)Nc1nc2ccccc2n1Cc1ccc(Br)cc1	MDA-MB-231-HRE-Luc cells	HIF reporter gene, inhibitor	24 h, hypoxia 1% O2	1.53 ± 0.78 µM
CC(=O)O[C@H]1C(=O)[C@@]2(C)[C@H]([C@H](OC(=O)c3ccccc3)[C@]3(O)C[C@H](OC(=O)[C@H](O)[C@@H](NC(=O)c4ccccc4)c4ccccc4)C(C)=C1C3(C)C)[C@]1(OC(C)=O)CO[C@@H]1C[C@@H]2O	HCT-15	cell growth or viability, XTT	72 h	0.326 µg/mL
Nc1c(S(=O)(=O)O)cc(Nc2cccc(S(N)(=O)=O)c2)c2c1C(=O)c1ccccc1C2=O	COS-7 (serum-starved)	Thr308 dephosphorylation	35 min	132 ± 1 µM
Cc1ccc(C(CS(=O)(=O)c2ccccc2)=NNc2nc(-c3ccc(OCCCCOc4ccc(-c5csc(NN=C(CS(=O)(=O)c6ccccc6)c6ccc(C)cc6)n5)cc4)cc3)cs2)cc1	WM 266-4	cell growth or viability, MTT	48 h	17.1 µM
CN(C)Cc1ccc(/C=N/NC(=O)Nc2cc3c(Nc4ccc(F)c(Cl)c4)ncnc3cc2O[C@H]2CCOC2)cc1	NCI-H1975	cell growth or viability, MTT	72 h	40.3 µM
COc1cc2[nH]c(C)c(-c3ccc(-c4ccc(OC(F)(F)F)cc4)cc3)c(=O)c2cc1Cl	HeLa and HCT-116 average	cell viability, MTT	48 h	30 µM
O=C(Cc1ccc(Br)cc1)Nc1nc2ccccc2n1Cc1ccc(Br)cc1	MDA-MB-231-HRE-Luc cells	HIF reporter gene, inhibitor	24 h, hypoxia 1% O2	1.78 ± 0.75 µM

Molecule	cell line	assay	setting	IC50
COC(=O)c1c(-c2cccc(OC)c2)c2n(c1C(=O)OC)CCn1cccc1-2	PC-3	cell growth or viability, MTT	48 h	85.5 µM
COc1cc(/C=C/C(=O)CC(=O)/C=C/c2ccc(OC(=O)C3=CC=C[CH]3[Fe][CH]3C=CC=C3)cc2)ccc1O (stereo not shown)	RKO	cell growth or viability, MTT	–	11.1 µM
N#Cc1ccc(C(c2ccc(C#N)cc2)n2cncn2)cc1	MCF7 Tet-off 3β-HSD1 aromatase	DHEA-stimulated proliferation, inhibitor, MTT	10 days, together with: DHEA 5 nM	0.0006 µM
COc1cc(O)c2c(=O)c(O)c(-c3ccc(O)c(O)c3)oc2c1	BV-2	NO release, Griess	24 h, together with: LPS 10 µg/mL	26.4 µM
CCNC(=O)Nc1ccc(S(=O)(=O)Oc2cnccc2Br)cc1	HT-1080	cell growth or viability, SRB	48 h	4.1 µM
COc1cc(C(=O)O)ccc1O	BV-2	NO release, inhibitor, Griess	LPS-stimulated	> 20 µM
Fc1cc(-c2nc3ccc(Cl)cc3[nH]2)ccc1OCc1cn(CCN2CCOCC2)nn1	DND41	cell growth or viability, MTS	72 h	> 100 µM
CC/C(=C(\c1ccccc1)c1ccc(OCCN(C)CCOCCOCCOc2ccc3[nH]cc(CCNC(C)=O)c3c2)cc1)c1ccccc1	HT-1080	cell survival, MTT	day 9, dosed days 2, 4, 7	5.9 µM
CNC(=O)c1cc(Oc2ccc(NC(=O)Nc3ccc(Cl)c(C(F)(F)F)c3)cc2)ccn1	MHCC97H cells	cell viability, MTT	concentration not given, together with: pralatrexate 0.5	0.36 µM
O=C(O)Cc1ccccc1Nc1c(Cl)cccc1Cl.c1cnc2c(c1)ccc1cccnc12	CAL-27	cell viability, MTT	48 h	3.19 ± 1.54 µM
COc1c(O)cc2cc1C[C@@H](C)C[C@H](OC)[C@H](O)[C@@H](C)/C=C(\C)[C@H](OC(N)=O)[C@@H](OC)CC/C=C(\C)C(=O)N2	Kasumi 1	cell growth or viability	–	0.28 µM
COc1cc(O)c2c(c1)O[C@H](c1ccc(O)cc1)CC2=O	BV-2	NO release, Griess	24 h, together with: LPS 10 µg/mL + nicotine 1 µM	16.9 µM
CCN1CCC2(CC1)C/C(=N\N=C\c1ccc(N(C)C)cc1)c1ccccc1O2	MCF7, HCT-116, PC-3, A549	cell growth, MTT	range over cell lines	48.5 to 80 µM
COc1cc(/C=C/C(=O)N2CCC=CC2=O)cc(OC)c1OC	pStat3-high breast cancer lines	anchorage-independent growth	16 h	2.8 to 12.9 µM
COc1cc([C@@H]2c3cc4c(cc3[C@@H](O[C@@H]3O[C@@H]5CO[C@@H](C)O[C@H]5[C@H](O)[C@H]3O)[C@H]3COC(=O)[C@H]23)OCO4)cc(OC)c1O	DND41	cell growth or viability, MTS	72 h	1 µM
CC(C)Oc1ccc(C(=O)Cn2ccnc2)cc1-n1c(CN2CCN(C(=O)COc3ccc(Cl)cc3)CC2)nc2ccccc2c1=O	SU-DHL-5	cell viability, CellTiter-Glo	24 h	< 0.1 µM
O=C(N/N=C/c1ccc(N2CCCC2)o1)Nc1cc2c(Nc3ccc(F)c(Cl)c3)ncnc2cc1O[C@H]1CCOC1	NCI-H1975	cell growth or viability, MTT	72 h	32.3 µM
O=C1C(SCCO)=C(SCCO)C(=O)c2ccccc21	hiPSC hepatic differentiation phase II	cell viability, CCK-8	48 h	33.5 ± 7.43 µM
Cc1ccc(C(CS(=O)(=O)c2ccccc2)=NNc2nc(C)c(N=Nc3cccc(C)c3)s2)cc1	WM 266-4	cell growth or viability, MTT	48 h	3.18 µM
CC(C)c1cc(CNc2nc(Nc3cc(C4CC4)[nH]n3)cc(N3CCN(C)CC3)n2)on1	primary CLL cells	caspase-3 activation, flow cytometry	24 h, OP9 stromal co-culture	2.54 µM

Molecule	cell line	assay	setting	IC50
CC1(C)CCC2=CC(=O)CC(=O)C2C1 (stereo not shown)	rat Synovial cell	cell growth or viability, CCK-8	48 h	4.48 µM
CC[n+]1c(/C=C/C=C2/N(C)c3ccccc3C2(C)C)sc2ccccc21	human MSC hMSC-OD1	cell viability, CCK-8	48 h, osteogenic differentiation day 1	8.06 ± 0.88 µM
Fc1ccc2nc(-c3ccc(OCCN4CCOCC4)cc3)[nH]c2c1	DND41	cell growth or viability, MTS	72 h	52.1 µM
CC(C)c1ncccc1OS(=O)(=O)c1ccc(NC(=O)NCCCl)cc1	HT-1080	cell growth or viability, SRB	48 h	3.8 µM
CS(=O)(=O)CCNCc1ccc(-c2ccc3ncnc(Nc4ccc(OCc5cccc(F)c5)c(Cl)c4)c3c2)o1	human Epithelial cell	cell growth or viability, CCK-8	72 h	5.99 µM
COc1ccccc1C=C1SC(=O)N(CC(=O)Nc2ccc(C(=O)Nc3ccc(Cl)cc3)cc2)C1=O	HT-29, A549, HCT-116	cell growth, MTT	range over cell lines	13.6 to 17.8 µM
CC[C@@]1(O)C(=O)OCc2c1cc1n(c2=O)Cc2cc3c(CN(C)C)c(O)ccc3nc2-1	MT330	cell growth or viability	–	4.81 µM
CCCCCCCCCCCCCC(=O)OC[C@H](COP(=O)([O-])OCC[N+](C)(C)C)OC(=O)CCCCCCCCCCCCC	MDA-MB-435S	cell growth or viability, MTT	72 h	231 µM
CN(C)c1ccc(/C=N/NC(=O)Nc2cc3c(Nc4ccc(F)c(Cl)c4)ncnc3cc2O[C@H]2CCOC2)cc1	NCI-H1975	cell growth or viability, MTT	72 h	12.3 µM
C[C@]1(N)C(=O)c2cc(F)ccc2O[C@@H]1CC(=O)NC12CC3CC(CC(C3)C1)C2	PC-3M	cell growth or viability, SRB	96 h	> 50 µM
navitoclax	H146	cell viability, MTS	48 h	0.0438 µM
O=C(/C=C/c1ccc(Br)cc1)C(=CC1=CC=C[CH]1[Fe][CH]1C=CC=C1)C(=O)/C=C/c1ccc(Br)cc1 (stereo not shown)	RKO	cell growth or viability, MTT	–	17.2 µM
O=C(N/N=C/c1ccc(OCCCN2CCCCC2)cc1)Nc1cc2c(Nc3ccc(F)c(Cl)c3)ncnc2cc1O[C@H]1CCOC1	NCI-H1975	cell growth or viability, MTT	72 h	2.2 µM
C[C@]1([N+](=O)[O-])C(=O)c2ccccc2O[C@@H]1CC(=O)NC12CC3CC(CC(C3)C1)C2	PC-3M	cell growth or viability, SRB	96 h	7.31 µM
COc1cccc2c1C(=O)c1c(O)c3c(c(O)c1C2=O)C[C@@](O)(C(=O)CO)C[C@@H]3O[C@H]1C[C@H](N)[C@H](O)[C@H](C)O1	SK-BR-3	cell growth or viability, CCK-8	–	0.186 µM
C[C@]1([N+](=O)[O-])C(=O)c2c(F)cccc2O[C@@H]1CC(=O)NC12CC3CC(CC(C3)C1)C2	PC-3M	cell growth or viability, SRB	96 h	9.75 µM
O=C(N/N=C/c1ccc(N2CCCC2)nc1)Nc1cc2c(Nc3ccc(F)c(Cl)c3)ncnc2cc1O[C@H]1CCOC1	NCI-H1975	cell growth or viability, MTT	72 h	51.6 µM
COc1cc(-c2nc3ccc(C(=O)Nc4ccc(C)cc4)cc3[nH]2)cc(OC)c1OC	MRC5 fetal lung fibroblasts	cytotoxicity, MTT	72 h	15.1 ± 1.62 µM

Excerpt of the above:
Molecule	cell line	assay	setting	IC50
CC/C(=C(\c1ccccc1)c1ccc(OCCN(C)CCOCCOCCOc2ccc3[nH]cc(CCNC(C)=O)c3c2)cc1)c1ccccc1	HT-1080	cell survival, MTT	day 9, dosed days 2, 4, 7	5.9 µM
CNC(=O)c1cc(Oc2ccc(NC(=O)Nc3ccc(Cl)c(C(F)(F)F)c3)cc2)ccn1	MHCC97H cells	cell viability, MTT	concentration not given, together with: pralatrexate 0.5	0.36 µM
O=C(O)Cc1ccccc1Nc1c(Cl)cccc1Cl.c1cnc2c(c1)ccc1cccnc12	CAL-27	cell viability, MTT	48 h	3.19 ± 1.54 µM
COc1c(O)cc2cc1C[C@@H](C)C[C@H](OC)[C@H](O)[C@@H](C)/C=C(\C)[C@H](OC(N)=O)[C@@H](OC)CC/C=C(\C)C(=O)N2	Kasumi 1	cell growth or viability	–	0.28 µM
COc1cc(O)c2c(c1)O[C@H](c1ccc(O)cc1)CC2=O	BV-2	NO release, Griess	24 h, together with: LPS 10 µg/mL + nicotine 1 µM	16.9 µM
CCN1CCC2(CC1)C/C(=N\N=C\c1ccc(N(C)C)cc1)c1ccccc1O2	MCF7, HCT-116, PC-3, A549	cell growth, MTT	range over cell lines	48.5 to 80 µM
COc1cc(/C=C/C(=O)N2CCC=CC2=O)cc(OC)c1OC	pStat3-high breast cancer lines	anchorage-independent growth	16 h	2.8 to 12.9 µM
